# Experimental data collected from several papers.
# Parts stem from different laboratories: compare values within a part only.

# Block 1
# Target: RING finger protein unkempt homolog, zinc fingers 1-6, GST-SBP tag (UNK, Homo sapiens, UniProt Q9C0B0, residues 30-357)
# Sequence of UniProt Q9C0B0 (30-357, looked up): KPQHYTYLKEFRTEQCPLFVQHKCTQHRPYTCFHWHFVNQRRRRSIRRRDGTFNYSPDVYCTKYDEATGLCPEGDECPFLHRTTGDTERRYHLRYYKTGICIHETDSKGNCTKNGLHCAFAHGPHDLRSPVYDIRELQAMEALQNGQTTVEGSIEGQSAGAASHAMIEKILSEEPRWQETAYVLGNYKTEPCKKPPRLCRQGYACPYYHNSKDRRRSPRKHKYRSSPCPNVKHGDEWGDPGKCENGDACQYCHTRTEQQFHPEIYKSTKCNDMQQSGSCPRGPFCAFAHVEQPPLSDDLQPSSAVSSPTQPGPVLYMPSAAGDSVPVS
# Method: RNA Bind-n-Seq
# Molecule type: RNA
# Medium: in vitro
# Tested at: not given
# Notes: RNA with constant flanks, human and mouse sites, ends assumed
# Relative to: input RNA pool
# Direction: higher = stronger binding
Sequence,bound/input enrichment
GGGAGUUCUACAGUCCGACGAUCAGUGAAGAAAAUGCUGAGCCGGAUCUCGAUGACAAUGAGGAGGAGGAGGAGCCUGCUGUAGAAAUUGAACCUGAGCCAGAGCCUCAGCCCCAGCCUCCGCCUCCACCUCAGCCUGUGGCCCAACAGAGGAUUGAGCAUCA,0.254 ratio
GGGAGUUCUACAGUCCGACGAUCAAGGAUUCUCUGCCUCGCUUUGUGCGCUCUGAGUUUUAUCAGGAGUUAAUCAAGUAGUAAUUUAGCCAGGCUAUGAAAUCAUCCUGUGAGUUAUUUCCUCCAUAAUAACCCUGCAUUUCCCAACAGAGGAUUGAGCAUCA,0.57 ratio
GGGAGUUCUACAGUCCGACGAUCGUAGCUGAUGCUGUCACCUACCAGCUCGGUUUCCACAGCAUUGAACUGAAUGAGCCUCCACUGGUCCACACAGCAGCCAGCCUCUUUAAGGAGAUGUGUUACCGAUACCGGGAAGACCUGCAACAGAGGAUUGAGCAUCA,0.112 ratio
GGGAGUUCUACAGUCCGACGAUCUGGAUCGAGGGUGAUGAGCUGCACCUGGAGAUGAGAGUGGAAGGUGUGGUCUGCAAGCAAGUAUUCAAGAAGGUGCAGUGAGGCCCAGGCAGACAACCUUGUCCCAAGGAAUCAGCAGGACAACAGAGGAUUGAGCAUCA,0.124 ratio
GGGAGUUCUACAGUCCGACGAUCUUUGCUCGACACACGGCUCUCAAGCCCCACGCAUGUCCUCGAUGCGGUAAGGGCUUCAAGCAUAGCUUCAACUUGGCUAACCACCUGCGCUCACACACUGGUGAACGACCCUACCGAUGCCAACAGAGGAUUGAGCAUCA,0.231 ratio
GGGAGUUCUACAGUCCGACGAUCCUGACCUUGGAAGGAGGAUACCCACCACUGGAGGCUGGAGCCACUGGAAAGAGGCGUUAAAAAUUUUGCAGUUAUUUAUCUUGUGGAUAUUACAGAAGUGCCUGACUUCAACAAAAUGUACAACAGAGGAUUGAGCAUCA,0.364 ratio
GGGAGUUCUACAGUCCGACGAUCCCAGAUGGGACUAGCAGAUUUACCUGCAAAGGAAAGUCUGUUUUUCACUUCAUGGGGACUAGCACAUUUUCCGAGUACACAGUUGUGGCUGACAUCUCUGUUGCUAAAAUCGAUCCUUCGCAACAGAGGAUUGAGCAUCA,0.451 ratio
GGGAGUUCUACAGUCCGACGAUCACUGCAGAACAGUGGAAAAAGAAGUAUGAAAAAGAAAAAGAAAAAAAUAAGAUCCUGCGGAACACUAUUCAGUGGCUUGAAAAUGAGCUCAACAGAUGGCGUAAUGGGGAGACGGUGCCUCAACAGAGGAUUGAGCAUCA,0.634 ratio
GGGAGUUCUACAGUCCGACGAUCUUUUUUUUUUCUGUGUAAAUCAUCAACUAUAAGAAGAAACUAUGGGACUCUAAGCCUGGCUUUAGAGAAUUUACAGUGGACAAAUAGGUUUCAUCAAACCAGUUUUUAAUCAUUCUGACUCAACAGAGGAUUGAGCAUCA,0.61 ratio
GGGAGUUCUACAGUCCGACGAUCAGAAAGCAAAACUUGGAAAGAUUUAAGAAAGGAGAUGUAAGAUUCUUGAUUUGCACAGAUGUAGCUGCUAGAGGAAUUGAUAUCCACGGUGUUCCUUAUGUUAUAAAUGUCACUCUGCCCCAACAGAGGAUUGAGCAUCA,0.429 ratio
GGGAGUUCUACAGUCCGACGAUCGUGUGUGGGGUAGCCUUGGCCCCUGCCUUGGCCUUGCCUCUCUUCCCUGUCACCUGCCCCUAGUUAUUUUUUUUUUGACCACCACGUGAUUAUGGUCGGUGCUGCCUCCCCCCCGACCUGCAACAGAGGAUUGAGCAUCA,87.1 ratio

# Block 2
# Target: Interferon regulatory factor 3, full length, phosphomimetic (IRF3, Homo sapiens, UniProt Q14653, residues 1-427, S386D/S396D/S398D/S402D/T404D/S405D)
# Sequence of UniProt Q14653 (whole entry, unmodified, looked up): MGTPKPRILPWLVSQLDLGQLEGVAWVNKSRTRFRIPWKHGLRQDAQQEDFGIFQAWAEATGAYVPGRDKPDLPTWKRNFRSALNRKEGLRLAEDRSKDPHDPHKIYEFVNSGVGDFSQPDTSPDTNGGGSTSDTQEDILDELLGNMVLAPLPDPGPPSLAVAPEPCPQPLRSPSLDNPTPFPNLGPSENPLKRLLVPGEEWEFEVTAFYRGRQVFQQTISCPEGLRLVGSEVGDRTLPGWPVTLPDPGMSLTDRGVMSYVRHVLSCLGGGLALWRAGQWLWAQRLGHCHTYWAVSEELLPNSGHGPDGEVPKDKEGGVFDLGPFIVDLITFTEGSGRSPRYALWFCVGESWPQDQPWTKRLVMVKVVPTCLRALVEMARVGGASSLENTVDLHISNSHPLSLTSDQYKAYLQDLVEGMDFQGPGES
# Method: protein-binding microarray
# Molecule type: double-stranded DNA, one strand shown
# Medium: in vitro
# Tested at: 2540 nM top
# Notes: 60-bp whole probe
# Added: salmon DNA 0.4 mg/ml
# Relative to: random background probes
# Direction: higher = stronger binding
# All sequences stand within: GCCTAGCAC … GTCTTGATTCGCTTGACGCTGCTG
Sequence,fitted relative affinity [z-score]
GATGTTTTAGGTCCCTTTTCGTGCTAG,2.75
TTTTTTTTGGAATGTCTTCCCGTGCTA,0.514
TTCCAGCTGGTGACTAGCGAGTGCTAG,-0.627
GACGGTTTACTTTTCCTGACGTGCTAG,3.65
ATGAGCTTCAAACCATAACCGTGCTAG,-0.428
TCAGTTTTGAGTTTTCCACTGTGCTAG,1.53
TCAATCGTAAGCAAAAAACTGTGCTAG,-0.113
GACGGTTTCGGGACTGGAGACGTGCTA,4.99
TTAGTTTTCGGGACTGGGTTAGTGCTA,1.8
GAGGGTTTCGACTATCGGGACGTGCTA,1.42
TCAGGAAATGGGAAACCCACTGTGCTA,0.549
CTGCTCTGTGCACAGAAGACGTGCTAG,0.436
ACCATTTTTTTTCACTATTGGTGCTAG,1.73
CACGGTTTCGGTTTCGGGACGTGCTAG,10.7
GACGGTTTCGCTTCCGGGACGTGCTAG,7.8
GTAGGACTGCTACTGCTTTAGTGCTAG,-0.807
TCACTTCTGTTTTTGCTACTGTGCTAG,2.12
GACGGTATCGGTTGCGGGACGTGCTAG,2.79
TCATTTTCATTGTTTTTCACTGTGCTA,2.09
AACCGCCTCTCCCTTAGACGGTGCTAG,-0.0904
GACGACCTGGGGTATCGAGACGTGCTA,-0.753
GACGGTTTCGGTCTCTGGACGTGCTAG,8.35
TTAGTACTGAGTATCGATTAGTGCTAG,0.469
GATGGAAACTTAAACTAGAAAGTGCTA,1.02
GACGATTTCGTGACTGGAGACGTGCTA,0.798

# Block 3
# Target: RNA binding protein fox-1 homolog 2, RRM domain, GST-SBP tag (RBFOX2, Homo sapiens, UniProt O43251-10, residues 100-194)
# Method: RNA Bind-n-Seq
# Molecule type: RNA
# Medium: in vitro
# Tested at: 365 nM
# Notes: natural RNA segment, single round, ends assumed
# Relative to: no-protein control
# Direction: higher = stronger binding
# Target sequence (chain): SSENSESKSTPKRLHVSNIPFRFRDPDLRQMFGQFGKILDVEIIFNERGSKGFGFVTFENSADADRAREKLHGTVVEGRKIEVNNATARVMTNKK
Sequence,RBNS enrichment (R)
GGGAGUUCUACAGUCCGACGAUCGCAAUAACUUAGUAGUACUUGCUUAGUUAUAAAUAACUGGAUCUUUCUGCUGACAACUUAGGUUGUAUGAGUUAUGCUUAAAAGCUUUAAAUCGGAUGUUUCCUGUACCUUGGAAUUCUCGGGUGCCAA,0.237
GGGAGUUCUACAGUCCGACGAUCUUGGAGCUUCUCAAGUUUGAGGAUGAGGAAGCUCAGGCAGUGUAUUGGCACUCUAGUGCUCACAUAAUGGGUGAAGCCAUGGAAAGAGUCUAUGGUGGAUGUUUAUGCUAUGGAAUUCUCGGGUGCCAA,0.609
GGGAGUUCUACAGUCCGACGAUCAUUUACCAUUCCUACAAAAGAGGCAGAAACUUUGAGCAAUCUAGGUUUUUUUUUUUUUUAAGUUUUUUCUUUCUUCCUCUCCUGAAUACACUCCCCAAAACACCCCUUUCUGGAAUUCUCGGGUGCCAA,0.503
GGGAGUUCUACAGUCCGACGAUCGCCAAACCAAAGACAGAUUUGCUUAACCAACAGACGGGUGCUGACCCAUCCAGAACCACGUGCACGAGUUUUUACCUAGCUGGUUGUUUCCGAGGACCAGGCACUCGAUCUGGAAUUCUCGGGUGCCAA,0.717
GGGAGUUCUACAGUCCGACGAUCUUUAUAGUUGGCACUUGAUUGCAGUUCUGUGAGGCUUGAGCAUUCAUACACCUCACCUGCCUUGGCAAGCCUAUUUUAGUGAUAUGGCAGCACGGAUAUAACACUAUGCAUGGAAUUCUCGGGUGCCAA,14.2
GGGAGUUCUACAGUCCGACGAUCACACGGAAGCACGGGUCUCUUCUCAAUCUUUGCUGCAUUUGGAAAAUGUUCCCUCCCAUCUCAGGCCAGCGCCAUGUCGAGGCAUCUUCAGUCCACCCCUGCCUAAGGCUUGGAAUUCUCGGGUGCCAA,0.387
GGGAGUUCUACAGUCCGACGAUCUGGACACGUCUCCUCGCAGCUGCCCUAGCAAGGGGAGACAUUGUGGUAGCUAUCAGACAUGGACAGAAACUGACUUAGUGCUCACAAGCCCCUACACCUUCUGGGCUGAAUGGAAUUCUCGGGUGCCAA,0.379
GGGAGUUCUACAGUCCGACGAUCGGAUCUCCCUUCCUUGAGGAUGUUCUUGGCAUGGUCCUGCCCUACCUCAUGGGAUGGGCAAUGCACACACUGGCCCUUAUUUUUCCCUUUCAAAUAAAACACCAGUCAGGUGGAAUUCUCGGGUGCCAA,1.01
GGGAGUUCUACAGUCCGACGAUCGGGCUGCACUCUGGGAGUGCUUACUCACAGUUUAUUUGCUUUUUUUAAAAAGGAGAUUAUUCUAAAACAUAAACUUAUUUGCAUAUAUUGGAGGAGCAUCCACUAUCAGUUGGAAUUCUCGGGUGCCAA,0.508

# Block 4
# Target: Sal-like protein 4, full length isoform A (SALL4, Homo sapiens, UniProt Q9UJQ4, residues 1-1053)
# Sequence of UniProt Q9UJQ4 (whole entry, looked up): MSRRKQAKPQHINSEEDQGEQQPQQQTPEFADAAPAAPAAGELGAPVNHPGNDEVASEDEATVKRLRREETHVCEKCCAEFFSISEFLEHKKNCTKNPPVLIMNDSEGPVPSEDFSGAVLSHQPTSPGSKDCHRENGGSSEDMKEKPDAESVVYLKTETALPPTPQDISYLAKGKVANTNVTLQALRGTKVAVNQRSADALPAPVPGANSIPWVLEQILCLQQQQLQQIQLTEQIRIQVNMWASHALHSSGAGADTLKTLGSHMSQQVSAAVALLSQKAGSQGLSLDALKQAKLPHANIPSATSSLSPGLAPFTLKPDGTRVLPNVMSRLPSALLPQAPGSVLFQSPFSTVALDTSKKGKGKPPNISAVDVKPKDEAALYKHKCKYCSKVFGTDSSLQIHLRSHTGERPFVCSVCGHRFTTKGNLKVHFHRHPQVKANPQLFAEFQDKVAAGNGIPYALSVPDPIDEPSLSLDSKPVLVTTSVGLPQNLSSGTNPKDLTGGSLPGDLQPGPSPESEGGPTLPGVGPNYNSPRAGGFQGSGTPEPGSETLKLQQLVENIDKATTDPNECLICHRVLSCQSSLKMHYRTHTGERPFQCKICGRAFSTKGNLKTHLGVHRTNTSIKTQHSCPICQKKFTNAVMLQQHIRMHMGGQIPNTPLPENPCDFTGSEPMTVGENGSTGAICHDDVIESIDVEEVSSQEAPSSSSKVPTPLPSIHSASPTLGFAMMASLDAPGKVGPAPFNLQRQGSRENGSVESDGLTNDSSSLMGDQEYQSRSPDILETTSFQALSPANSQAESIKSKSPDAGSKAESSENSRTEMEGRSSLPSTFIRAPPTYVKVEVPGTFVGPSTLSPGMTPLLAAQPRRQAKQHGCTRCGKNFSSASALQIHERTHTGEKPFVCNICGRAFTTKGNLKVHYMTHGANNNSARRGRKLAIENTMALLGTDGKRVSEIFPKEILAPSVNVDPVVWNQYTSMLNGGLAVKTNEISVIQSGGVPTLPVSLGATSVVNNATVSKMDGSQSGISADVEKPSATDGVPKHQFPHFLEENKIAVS
# Method: universal PBM
# Molecule type: double-stranded DNA, one strand shown
# Medium: in vitro
# Tested at: 600 nM
# Notes: 8-mer, flanks averaged, mean of replicates
# Direction: higher = stronger binding
Sequence,E-score
CTCCGTGC,-0.39
AAGGCCTA,-0.149
GACGAGTA,0.00426
AACACATT,0.272
AGTTAATA,0.36
AGATTGGA,0.0901
AGGCACAG,-0.159
AAGCCGTC,-0.165
TATTTCCA,0.321
CTGCGACC,-0.181
AACTGTTG,0.0641
ACGCGTCG,-0.0523
CGGCGACC,-0.288
GACATCGA,0.0126
GTTTCTCA,-0.00732
ATTTGTTC,0.304
CTGTTAAG,0.0908
AGGAACGG,-0.102
ACGACTGG,-0.179
AGTGAGCG,-0.101
AAGAGATC,-0.09
GAAGCCAA,-0.0254
CGTTCGGC,-0.228
TAGTGGCA,-0.0759
CAATGATC,0.0992

# Some of these lines once more (block 4):
Sequence,E-score
CTGCGACC,-0.181
AACTGTTG,0.0641
ACGCGTCG,-0.0523
CGGCGACC,-0.288
GACATCGA,0.0126
GTTTCTCA,-0.00732
